Assay results from different studies.
Protocols differ between the studies behind these lines. “And” joins repeats or separate records; there may be more than shown.
Target: cGMP-dependent protein kinase 2 (PRKG2, Homo sapiens, UniProt Q13237)

Nc1ncc(-c2cc(-c3cnn(CC(F)(F)F)c3)ncc2F)nc1C(=O)NC1CNCC(F)C1 (stereo not shown)  remaining activity (enzyme activity; 1 µM; reference: DMSO control): 103%
COc1c(Cl)cccc1Nc1c(-c2ccncc2C#C[C@@]2(C)CCCN2C(=O)/C=C/CN(C)C)[nH]c2c1C(=O)NCC2  remaining binding (binding, competition with immobilised ligand; 3 µM): 98%
C=CC(=O)N1CCCC(n2c(=O)c3ncccc3n(Cc3ccc(Oc4ccccc4)cc3)c2=O)C1 (stereo not shown)  remaining binding (cell-free assay, competition with immobilised ligand; 1 µM): 95%
NC(=O)[C@@H](O)C[C@H]1CCc2sc3ncnc(O[C@H]4CC[C@H](N5CCOCC5)CC4)c3c21  inhibition (enzyme activity, inhibitor; 10 µM): 10%
COCC12C(=O)NC3C4(C(OC)CC1O)C1CC5(O)C(OC)C(O)C(OC(C)=O)(C1C5OC(=O)c1ccccc1)C3(O)C(OC)C24 (stereo not shown)  remaining activity (kinase activity, inhibitor, ProQinase kinase profiling; 25 µM; reference: control): 117% and 110%
CNC1C[S+]2CC[S+]3CC[S+](C1)[Ru-4]321([N]=C=S)[n]2c3ccc(OC)cc3c3c4c(c5cc(F)c[n+]1c5c32)C(=O)NC4=O (stereo not shown)  remaining binding (KinomeScan; 0.1 µM; reference: untreated): 26%
Cc1c[nH]c2nccc(-c3ccc(C(=O)N[C@@H]4c5c(F)cc(C(F)F)cc5C[C@@H]4O)cn3)c12  remaining binding (binding, competition with immobilised ligand; 3 µM): 18%
CC(C)=CC1OC(C)(C)C2C=C3C(=O)C(Cl)=CC(O)C3C3C(O)C4OC4C(=O)C132 (stereo not shown)  remaining binding (cell-free assay, competition with immobilised ligand; 10 µM): 74%
COc1cc(Nc2nc(C)cc(-c3cnn4nc(OC)ccc34)n2)cc(C(F)(F)F)c1  remaining activity (inhibitor; 1 µM; reference: control): 70%
C=CC(=O)Nc1cccc(-c2cnc3[nH]cc(C(=O)NC(C)(C)C)c3n2)c1  inhibition (kinase activity; 0.1 µM): 3% and -1%
C=CC(=O)N1Cc2nc(-c3cc(-c4cc(Cl)cnc4Cl)c(F)cc3F)n(-c3ccncn3)c2C1  inhibition (cell-free assay, inhibitor; 1 µM): 9.6%
CNC(=O)C[C@H](Cc1ccc(C#N)cc1)NC(=O)c1cc(-c2ccc(CN[C@H](C)c3ccc(C)cc3)o2)ccc1Cl  activity vs control (enzyme activity, inhibitor; 1 µM): 99%
O=C(Cc1ccc(OCc2ccccc2)cc1)NC1(C(=O)O)CCN(C(=O)c2ccc(-c3cccc(Cl)c3)cc2)CC1  activity vs control (enzyme activity, inhibitor; 10 µM): 98%

A few entries again:
NC(=O)[C@@H](O)C[C@H]1CCc2sc3ncnc(O[C@H]4CC[C@H](N5CCOCC5)CC4)c3c21  inhibition (enzyme activity, inhibitor; 10 µM): 10%
COCC12C(=O)NC3C4(C(OC)CC1O)C1CC5(O)C(OC)C(O)C(OC(C)=O)(C1C5OC(=O)c1ccccc1)C3(O)C(OC)C24 (stereo not shown)  remaining activity (kinase activity, inhibitor, ProQinase kinase profiling; 25 µM; reference: control): 117% and 110%
